# Experimental data pooled from the literature.
# A part holds a random share of what one study measured. Several values in a cell are separate wells, animals, samples, runs or records.

# Study 1 — tested at: 0.1 µM; relative to: DMSO
# Structure (SMILES): CNC(=N)NCCC[C@H](NC(=O)[C@H](CC(C)C)NC(=O)NNC(=O)[C@H](Cc1ccccc1)NC(=O)[C@H](CO)NC(=O)[C@H](CC(N)=O)NC(=O)[C@@H](Cc1ccncc1)NC(=O)[C@H](N)Cc1ccc(O)cc1)C(=O)N[C@@H](Cc1ccccc1)C(N)=O
cell line,technique,notes,viability
sample I colorectal tumour organoid,,replicate 2,129%
sample BA colorectal tumour organoid,,,58%
sample C colorectal tumour organoid,,,118%
colorectal tumour organoids,,,103%
normal-adjacent epithelium patient-derived organoids sample F,CellTiter-Glo,,106% and 112%
sample B colorectal tumour organoid,,replicate 1,126%
sample C colorectal tumour organoid,,replicate 2,109%

# Study 2 — cell line: HEK-293T; organism: VSV pseudotyped with VSV-G; tested at: 10 µM; time: 16 h
Structure (SMILES),pseudovirus infection
CC(C)c1cccc(C(C)C)c1O,121%
CC(C)NCC(O)COc1ccc(CCOCC2CC2)cc1 (stereo not shown),97.8%
NC(CO)(CO)CO,83.8%
CN[C@H](CC(C)C)C(=O)N[C@H]1C(=O)N[C@@H](CC(N)=O)C(=O)N[C@H]2C(=O)N[C@H]3C(=O)N[C@H](C(=O)N[C@H](C(=O)O)c4cc(O)cc(O)c4-c4cc3ccc4O)[C@H](O)c3ccc(c(Cl)c3)Oc3cc2cc(c3O[C@@H]2O[C@H](CO)[C@@H](O)[C@H](O)[C@H]2O[C@H]2C[C@](C)(N)[C@H](O)[C@H](C)O2)Oc2ccc(cc2Cl)[C@H]1O,95.4%
OCCOCCN1CCN(C2=Nc3ccccc3Sc3ccccc32)CC1,117%
CN1CCC(=C2c3ccccc3C=Cc3ccccc32)CC1,129%
CN1[C@@H]2CC[C@H]1C[C@@H](OC(c1ccccc1)c1ccccc1)C2,118%

# Study 3 — organism: Sarcocystis neurona; effect on: parasite growth; tested at: 10 µM; time: 96 h; relative to: untreated
SMILES,log2 fold change
O=c1c(-c2ccccc2)c1-c1ccccc1,-1.69
CN1CCN(CC/C=C2/c3ccccc3Sc3ccc(S(=O)(=O)N(C)C)cc32)CC1,-1.87
CCCCCCNC(=O)n1cc(F)c(=O)[nH]c1=O,-2.58
Oc1cc(Cl)ccc1Oc1ccc(Cl)cc1Cl,-0.29
CC[C@]1(O)CC[C@H]2[C@@H]3CCC4=CCCC[C@@H]4[C@H]3CC[C@@]21C,0.37
O=c1c2ccccc2[se]n1-c1ccccc1,0.29
O=C1Nc2ccc(Cl)cc2C(c2ccccc2Cl)=NC1O (stereo not shown),0.31
O=C(O)CCCc1ccc(N(CCCl)CCCl)cc1,-0.12

# Study 4 — cell line: HEK-293T-ACE2-TMPRSS2; technique: cell count; tested at: 10 µM
SMILES,viability [%]
COc1ccc(S(=O)(=O)CCc2noc(C(=O)N3CCC4(CC3)OCCO4)n2)cc1,109
C=CCc1c(O)c(CC)cc2c(C)cc(=O)oc12,65
CN(C(=O)CSC1=NCCS1)C1CCCCC1,79
CN1CCN(S(=O)(=O)c2ccc(N3Cc4cc5c(cc4C4(CCCC4)C3)OCCO5)nc2)CC1,68
CCOc1ncccc1C(=O)Nc1ccc(C)cc1S(=O)(=O)N(CC)CC,67
O=S(=O)(c1csc(-c2ccc(F)cc2)n1)N1CCC1c1ccccc1 (stereo not shown),65
COC[C@@H]1CN(S(=O)(=O)c2ccc(C#N)cc2)C[C@H]1c1ccncc1,89
O=C(NCC1CCN(Cc2ccc3nonc3c2)C1)C1CCCCC1 (stereo not shown),68
O=C(Cn1ncc(Cl)c(Cl)c1=O)NC1CCCCC1,65

# Repeated from above (study 3):
SMILES,log2 fold change
CCCCCCNC(=O)n1cc(F)c(=O)[nH]c1=O,-2.58
O=c1c2ccccc2[se]n1-c1ccccc1,0.29
